# Assay results collected from several papers.
# Compare with care: the assays were run in different laboratories. “And” joins repeats or separate records; there may be more than shown. Numbers after ± are the reported error.
Structure (SMILES),cell line,test,setting,scale,endpoint,value
CCn1cc(-c2cc(Cn3ccoc3=N)cc3c2CCN([C@@H](C)c2cc(OC)ccn2)C3=O)c(C(F)(F)F)n1,COLO 201,"cell growth, inhibitor",120 h,,EC50,4.99 µM
CC/C(=N\NC(=O)NCc1cccc(O)c1)c1ccc(O)c(C)c1O,SK-OV-3,Western blot,"10 µM, 6 h, 3D gellan gum culture, unit not given",reference: DMSO,LATS band intensity,1 ± 0.58
Cn1cc(-c2ccc(-c3cncc(Cl)c3N3CCC4(CCNC4=O)CC3)cc2)cn1,COLO 205,"gene expression, microarray, refers to: TUBD1 mRNA","concentration not given, 2 h",reference: untreated cells,log2 fold change,-2.03
CCn1cc(-c2cc(Cn3ccnc3)cc3c2CCN([C@H](c2cc(OC)ccn2)C2CC2)C3=O)c(C(F)(F)F)n1,COV504,"cell growth, inhibitor",120 h,,EC50,12.3 µM
Cc1c(C)c2c(c(C)c1O)CCC(C)(COc1ccc(CC3SC(=O)NC3=O)cc1)O2 (stereo not drawn),iPSC-derived hepatocytes B3,cell viability,"72 h, differentiation day 23",,IC50,52 µM
Clc1nc(NCc2ccco2)c2[nH]cnc2n1,FD iPSC-derived cardiomyocytes,"alternative splicing, RNA-seq, refers to: DMKN exon chr19(-):35508204-35508240",unit not given,reference: DMSO minus compound,ΔPSI,-0.278
Cc1ccc(-c2cc3ccccc3c(N)n2)cc1,SEM,"annexin V-FITC/PI flow cytometry, refers to: annexin V+ PI-","2.5 µM, 72 h",,early apoptotic cells,5.4%
CC[C@H]1OC(=O)[C@H](C)[C@@H](O[C@H]2C[C@@](C)(OC)[C@@H](O)[C@H](C)O2)[C@H](C)[C@@H](O[C@@H]2O[C@H](C)C[C@H](N(C)C)[C@H]2O)[C@](C)(OC)C[C@@H](C)C(=O)[C@H](C)[C@@H](O)[C@]1(C)O,primary rat hippocampal/cortical neuron-glia cultures,,"1 µM, added: 1 µM α-synuclein oligomers",,reversal of trafficking deficit,5.9%
CC(=O)N1CCC(Nc2cc(C(=O)NC[C@H](O)CN3CCc4ccccc4C3)ncn2)CC1,HD-MB03,cell growth,"168 h, DMSO",,IC50,0.126 µM
COc1cnc2cccc(N3CCc4c(cc(Cn5ccnc5C)cc4-c4cn(C)nc4C(F)(F)F)C3=O)c2c1,SW 1116,"cell growth, inhibitor",120 h,,EC50,0.352 µM
CCc1c2c(nc3ccc(O)cc13)-c1cc3c(c(=O)n1C2)COC(=O)[C@]3(O)CC,HD-MB03,cell growth,single agent,,IC50,0.001 µM
Cc1cnc(NC2CCOCC2)nc1-n1cnc(C(=O)NC(CN)c2cc(F)cc(Cl)c2)c1 (stereo not drawn),A-375,flow cytometry,"1 µM, 24 h",,G2 phase cells,3.2%
C[C@H](NC(=O)C(=O)Nc1ccccc1C(C)(C)C)C(=O)N[C@@H](CC(=O)O)C(=O)COc1c(F)c(F)cc(F)c1F,THP-1 cells expressing FKBP-caspase-4,"pyroptosis, inhibitor","concentration not given, added: B/B dimerizer",,LDH release,16.5% and 13.8% and 20.3%
O=C(C[C@@H](C(F)F)n1ccc(F)n1)N1CCC(O)(Cn2cnc3c(cnn3-c3ccc(F)cc3)c2=O)CC1,CHP-212 parental (wild-type USP7),PI flow cytometry,"1 µM, 24 h",,cells in G2/M phase,5.62% and 9.76% and 13.1%
Cn1c(Nc2nc3ccc(C(F)(F)F)cc3s2)nc2cc(C(=O)NCCOCCO)ccc21,SH-SY5Y,"RNA-seq, refers to: TNS1 mRNA","5 µM, 5 h",reference: untreated cells,fold change,1.69
C[C@H]1Oc2cc(cnc2N)-c2c(nn(C)c2C#N)CN(C)C(=O)c2ccc(F)cc21,NCI-H3122 (EML4-ALK variant 1),cell viability,,,Emax,71.2%
CC(C)(c1ccc(O)cc1)c1ccc(O)cc1,HepG2 spheroids,planimetry,"5 µM, 0 to 24 h",reference: mean area of 72 h spheroids,spheroid area increase,123%
Cc1noc2c1-c1ccccc1C(c1ccc(Cl)cc1)=N[C@H]2CC(N)=O,HD-MB03,cell growth,"168 h, single agent",,IC50,1.05 µM
Cc1cccc(-c2[nH]c(CNc3ccccc3F)nc2-c2ccc3ncnn3c2)n1,patient CD138+ cells,"flow cytometry, refers to: annexin V and PI","2 µM, autologous CD8+ T-cell co-culture",,apoptotic cells,6.6% and 5.53% and 13.9% and 10.9%
Cc1nc(Nc2ncc(C(=O)Nc3c(C)cccc3Cl)s2)cc(N2CCN(CCO)CC2)n1,HD-MB03,cell growth,"168 h, single agent",,IC50,> 10 µM
O=C(/C=C/C=C/C=C/C1CCCCC1)NC1=C[C@@](O)(/C=C/C=C/C=C/C(=O)NC2=C(O)CCC2=O)[C@@H]2O[C@@H]2C1=O,NCI-H1048,"cell growth, CellTiter-Glo",78 h,,GI50,13.6 µM

# Excerpt of the above:
Structure (SMILES),cell line,test,setting,scale,endpoint,value
C[C@H]1Oc2cc(cnc2N)-c2c(nn(C)c2C#N)CN(C)C(=O)c2ccc(F)cc21,NCI-H3122 (EML4-ALK variant 1),cell viability,,,Emax,71.2%
Cc1noc2c1-c1ccccc1C(c1ccc(Cl)cc1)=N[C@H]2CC(N)=O,HD-MB03,cell growth,"168 h, single agent",,IC50,1.05 µM
Cn1c(Nc2nc3ccc(C(F)(F)F)cc3s2)nc2cc(C(=O)NCCOCCO)ccc21,SH-SY5Y,"RNA-seq, refers to: TNS1 mRNA","5 µM, 5 h",reference: untreated cells,fold change,1.69
